Measurements from different studies.
Each line is one published result; not all experiments were run side by side. ± gives the spread as reported.

C[C@@H](N)c1cc(Cl)ccc1Cn1c(=S)[nH]c(=O)c2[nH]ccc21
AUC(0-inf) (human, both sexes, severe renal impairment, plasma; oral, 2.5 mg single dose, geometric mean): 0.69 µM·h

CC[C@H](Nc1ncnc2[nH]cnc12)c1oc2ccccc2c(=O)c1-c1cccc(F)c1
AUC(0-inf) (human patients, plasma; oral, 600 mg twice daily, added: romidepsin 12 mg/m2): 13400 ± 1180 ng·h/mL

C#Cc1cccc(Nc2ncnc3cc(OCCOC)c(OCCOC)cc23)c1
AUC(0-inf) (human, plasma; oral, 50 mg, day 1): 18.4 ± 8.34 µM·h

CC1(C)CC[C@]2(NC(=O)C(C)(F)F)CC[C@]3(C)[C@H](C(=O)C=C4[C@@]5(C)C=C(C#N)C(=O)C(C)(C)[C@@H]5CC[C@]43C)[C@@H]2C1
AUC(0-inf) (human, plasma; oral, 150 mg single dose, alone, geometric mean): 1380 ng·h/mL

CNC(=O)c1c(C)oc2cc(Oc3ncnc4cc(OC)c(OC)cc34)ccc12
AUC(0-inf) (human, normal hepatic function (Child-Pugh), plasma; oral, 5 mg, single dose): 5710 ng·h/mL

CNC(=O)c1ccc(-c2cnc3ncc(Cc4ccc5ncccc5c4)n3n2)cc1F
AUC(0-inf) (human, mild NCI classification, plasma; oral, 200 mg, adjusted geometric mean): 6640 ng·h/mL

Cc1cc(C)c(CNC(=O)c2cc(Cl)c3c(c2C)O[C@@](C)([C@H]2CC[C@H](N(C)C)CC2)O3)c(=O)[nH]1
AUC(0-inf) (mean; healthy male humans, plasma; oral, 25 mg, day 12, added: fluconazole): 1110 ng·h/mL

CC(C)n1c(Nc2cccnc2)nc2cnc(Nc3ccc(N4CCN(C)CC4)cc3)nc21
AUC(0-inf) (LC-MS/MS; human, male, plasma; oral, 100 mg, day 11, added: itraconazole 200 mg): 1150 ng·h/mL

NC(=O)c1[nH]cnc1N
AUC(0-inf) (human patients, plasma; IV infusion over 1 h, 1000 mg/m^2 DTIC, cycle 2 day 1, staggered with co-drug): 29400 ng·h/mL

Cc1ccc(C)c(OCCCC(C)(C)C(=O)O)c1
AUC(0-inf) (human, plasma; oral, 600 mg single, before lopinavir/ritonavir, geometric mean): 104000 ng·h/mL

NC[C@@]1(CC(=O)O)[C@@H]2CC[C@H]3C[C@@H]2[C@@H]1C3
AUC(0-inf) (human, moderate renal impairment, plasma; oral, 20 mg single dose, geometric mean): 3920 ng·h/mL

CC1=C(c2cccc(O)c2)[C@H](c2ccc(OCCN3CC(CF)C3)cc2)Oc2ccc(O)cc21
AUC(0-inf) (human, plasma; oral, 1400 mg single dose, geometric mean): 3400 ng·h/mL

CC(=O)c1cc(C(=O)N[C@@H](C)Cn2ccc(-c3ccc(C#N)c(Cl)c3)n2)[nH]n1
AUC(0-inf) (human, fasted, plasma; oral solution, 300 mg 14C-darolutamide, geometric mean): 93700 ng⋅h/mL

N[C@]1(C(=O)O)[C@H]2[C@@H](C[C@@H]1F)[C@@H]2C(=O)O
AUC(0-inf) (human, both sexes, plasma; oral, 20 mg, fed, single dose): 676 ng·h/mL

CC(C)c1nc(N(C)S(C)(=O)=O)nc(-c2ccc(F)cc2)c1/C=C/[C@@H](O)C[C@@H](O)CC(=O)O
AUC(0-inf) (human, plasma; oral, 20 mg, day 2, mean, alone): 57.8 ng·h/mL

N#CCNC(=O)c1ccc(-c2ccnc(Nc3ccc(N4CCOCC4=O)cc3)n2)cc1
AUC(0-inf) (healthy human volunteers, plasma; 200 mg momelotinib, day 1, fasted, momelotinib alone): 4320 ng·h/mL

O=C(O)CCC(=O)O.[2H]C([2H])([2H])Oc1cc(C)c2[nH]ccc2c1CN1CC[C@@H](C2CC2)C[C@H]1c1ccc(C(=O)O)cc1
AUC(0-inf) (healthy humans, fed; oral, 200 mg, single dose, high-fat meal): 127000 ng·h/mL

CO[C@H]1C[C@@H]2CC[C@@H](C)[C@@](O)(O2)C(=O)C(=O)N2CCCC[C@H]2C(=O)O[C@H]([C@H](C)C[C@@H]2CC[C@@H](OCCO)[C@H](OC)C2)CC(=O)[C@H](C)/C=C(\C)[C@@H](O)[C@@H](OC)C(=O)[C@H](C)C[C@H](C)/C=C/C=C/C=C/1C
AUC(0-inf) (human patients, plasma; oral, 5 mg single dose, added: vorolanib 200 mg): 398 ± 48.9 ng·h/mL

N[C@](CO)(CCc1ccc(Sc2cccc(OCc3ccccc3)c2)cc1Cl)COP(=O)(O)O
AUC(0-inf) (human, blood; 3 mg MOC, MOC given alone): 121 ng·h/mL

[H]/N=C(/N)c1ccc(NCc2nc3cc(C(=O)N(CCC(=O)O)c4ccccn4)ccc3n2C)cc1
AUC(0-inf) (healthy human subjects, plasma; oral, 150 mg dabigatran etexilate, geometric mean, added: fruquintinib 5 mg): 924 ng·h/mL

Cc1cc(Nc2cc3ncccc3c(N[C@@H]3C[C@H]4CC[C@@H](C3)N4CCC#N)n2)n[nH]1
AUC(0-inf) (human, plasma; 1000 mg single dose, mean): 168 ng·h/mL

C[C@H]1CN(C(=O)CC#N)[C@]12CCN(c1ncnc3[nH]ccc13)C2
AUC(0-inf) (healthy adult humans, plasma; oral, 12 mg single, geometric mean): 408 ng·h/mL

C=CC(=O)NC1CCN(c2ncc3ncnc(Nc4ccc(Oc5ccc6c(c5)ncn6C)c(C)c4)c3n2)CC1
AUC(0-inf) (human, male, plasma; oral, 30 mg, fasted, adjusted geometric mean): 5.92 µM·h

C[C@H](O)c1cc(C(=O)N[C@@H](C)Cn2ccc(-c3ccc(C#N)c(Cl)c3)n2)n[nH]1
AUC(0-inf) (human, fasted, plasma; oral tablet, 300 mg, geometric mean): 10500 ng·h/mL

CCn1cc(C(=O)N2CCOCC2)c(=O)c2cc(NC3Cc4ccccc4C3)cnc21
AUC(0-inf) (human, fasted; oral suspension, 2000 mg single dose, arithmetic mean): 5750 ng·h/mL

CCCOc1ccc(NC(=O)CN2CCN(C)CC2)cc1-c1nc(CC)c(CC)c(=O)[nH]1
AUC(0-inf) (human, fasting, plasma; oral, 10 mg, added: placebo): 569 ± 83 ng·h/mL

Cc1ccc(C(=O)N(CCCN)C(c2nc3snc(C)c3c(=O)n2Cc2ccccc2)C(C)C)cc1 (centres unmarked)
AUC(0-inf) (human patients, plasma; intravenous, 7 mg/day, day 3 after induction, geometric mean): 750 ng·h/mL

CCc1nc2c(C)cc(N3CCN(CC(=O)N4CC(O)C4)CC3)cn2c1N(C)c1nc(-c2ccc(F)cc2)c(C#N)s1
AUC(0-inf) (healthy human volunteers, plasma; oral, 150 mg): 9000 ng·h/mL

Nc1ccn([C@@H]2O[C@H](CO)[C@@H](O)C2(F)F)c(=O)n1
AUC(0-inf) (human, plasma; dose not given, mean, after paricalcitol): 17800 ng·h/mL

C[C@H](Oc1ccc(Br)cc1-c1ccon1)C(=O)O
AUC(0-inf) (human, plasma; oral, 400 mg twice daily, day 1, multiple ascending dose): 204000 ng·h/mL

C=CC(=O)N(C)CCOc1c(N)ncnc1-c1cc(F)cc(NC(=O)c2ccc(C3CC3)cc2F)c1C
AUC(0-inf) (human, whole blood; oral, 100 mg, single ascending dose): 333 ± 143 ng·h/mL

N[C@@H]1c2cccnc2[C@H](OC(=O)N2CCC(n3c(=O)[nH]c4ncccc43)CC2)CC[C@H]1c1cccc(F)c1F
AUC(0-inf) (human, plasma; oral, 75 mg single dose, alone, arithmetic mean, rifampin DDI study): 5230 ng·h/mL

CN1C(=O)[C@@H](NC(=O)c2nnc(Cc3ccccc3)[nH]2)COc2cccnc21
AUC(0-inf) (healthy human, fasted, plasma; oral, 400 mg single dose, geometric mean): 57500 ng·h/mL

CCCn1cc(C)c2c(=O)[nH]c(-c3cc(S(=O)(=O)N4CCN(CC)CC4)ccc3OCC)nc21
AUC(0-inf) (human, plasma; oral, 100 mg): 212 ± 121 ng·h/mL

NC(CO)(CO)CCc1ccc(Sc2cccc(OCc3ccccc3)c2)cc1Cl
AUC(0-inf) (human, whole blood; oral, 3 mg, added: itraconazole 200 mg once daily): 162 ng·h/mL

CCN1CCN(Cc2ccc(Nc3ncc(F)c(-c4cc(F)c5nc(C)n(C(C)C)c5c4)n3)nc2)CC1
AUC(0-inf) (fasted healthy human subjects, plasma; oral, 150 mg, 3 × 50 mg tablet): 3120 ng·h/mL

CCNCCCNC/C=C\CNCCCNCC
AUC(0-inf) (LC-MS/MS; human cancer patients, plasma; intravenous infusion 60 min, 100 mg, median, cycle 1): 304 ng·h/mL

Cc1cc(C)c(CNC(=O)c2cc(Cl)c3c(c2C)O[C@@](C)([C@H]2CC[C@H](N(C)C)CC2)O3)c(=O)[nH]1
AUC(0-inf) (item: total radioactivity; human, plasma; oral, 200 mg): 25800 ng eq·h/mL

C[C@H]1C[C@@H](N2C(=N)N[C@](C)(c3cccc(NC(=O)c4cccc(C#N)c4)c3Cl)CC2=O)CCO1
AUC(0-inf) (human; oral, 50 mg): 27100 ng·h/mL

Cn1cncc1[C@@](N)(c1ccc(Cl)cc1)c1ccc2c(c1)c(-c1cccc(Cl)c1)cc(=O)n2C
AUC(0-inf) (human, with dose-limiting toxicity, plasma; oral, dose not given, range): 1730 to 22700 ng·h/mL

C[C@@H](Oc1ccc(S(C)(=O)=O)cc1C(=O)N1C[C@@H]2C[C@]2(c2cc(C(F)(F)F)on2)C1)C(F)(F)F
AUC(0-inf) (healthy young humans, plasma; oral, 50 mg single dose): 18.3 µM·h

Cn1c(=O)oc2ccc(-c3ccc(C[C@@H](C#N)NC(=O)[C@@H]4CNCCCO4)cc3)cc21
AUC(0-inf) (human, severe renal impairment, plasma; oral, 25 mg single dose, geometric least squares mean): 2640 ng·h/mL

CN[C@@H](C)C(=O)N[C@H]1CN(S(=O)(=O)c2cccc(S(=O)(=O)N3CC[C@H]4CC[C@@H](C(=O)NC(c5ccccc5)c5ccccc5)N4C(=O)[C@@H](NC(=O)[C@H](C)NC)C3)c2)CC[C@H]2CC[C@@H](C(=O)NC(c3ccccc3)c3ccccc3)N2C1=O
AUC(0-inf) (LC-MS/MS, noncompartmental; human, plasma; 20 mg, cycle 1 day 1): 168 ng·h/mL

COC(=O)N[C@H](C(=O)N1CCC[C@H]1c1nc2cc([C@H]3CC[C@H](c4cc5nc([C@@H]6CCCN6C(=O)[C@@H](NC(=O)OC)[C@@H](C)OC)[nH]c5cc4F)N3c3cc(F)c(N4CCC(c5ccc(F)cc5)CC4)c(F)c3)c(F)cc2[nH]1)[C@@H](C)OC
AUC(0-inf) (healthy human subjects, plasma; oral, dose not given, single dose alone): 2200 ng·h/mL

Cn1cncc1[C@@](N)(c1ccc(Cl)cc1)c1ccc2c(c1)c(-c1cccc(Cl)c1)cc(=O)n2C
AUC(0-inf) (healthy human subjects, plasma; oral, 50 mg, fasted): 442 ng·h/mL

CN1CCC(COc2cnc(-c3cccc(Cn4nc(-c5cccc(C#N)c5)ccc4=O)c3)nc2)CC1
AUC(0-inf) (human, plasma; dose not given, day 12, single dose, geometric mean, added: itraconazole 200 mg once daily days 8-18): 23200 ng·h/mL

CN(C)C(=O)c1cc2cnc(Nc3ccc(N4CCNCC4)cn3)nc2n1C1CCCC1
AUC(0-inf) (human, normal renal function, plasma; oral, 400 mg, single dose, adjusted geometric mean): 5570 ng·h/mL

C#C[C@]1(CO)O[C@@H](n2cnc3c(N)nc(F)nc32)C[C@@H]1O
AUC(0-inf) (human, plasma; oral, 15 mg, single dose, geometric mean): 1.57 µM·h

Cn1nnc2c(C(N)=O)ncn2c1=O
AUC(0-inf) (human patients, plasma; oral, 20 mg/m2, day 5, dose level DL3, median, added: talazoparib 600 µg/m2): 1690 ng·h/mL

CC(C)[C@@H]1CC[C@@H](C)C[C@H]1OC(=O)O[C@@H](C)OC(=O)[C@H]1[C@@H]2C[C@H](F)[C@@](N)(C(=O)O)[C@@H]21
AUC(0-inf) (human, plasma; oral, 20 mg single dose, fed): 83.7 ng·h/mL

COc1cc(C(=O)NC2CCN(C)CC2)c(F)cc1Nc1ncc(C(F)(F)F)c(Oc2cccc3c2C(=O)N(C)C3)n1
AUC(0-inf) (human, Japanese, plasma; oral, 200 mg single dose, geometric mean): 29 µM·h

Cn1cc(-c2ccc(S(=O)(=O)[C@@H]3C[C@@H](C(=O)NC4(C#N)CC4)N(C(=O)C4(C(F)(F)F)CC4)C3)c(C(F)(F)F)c2)cn1
AUC(0-inf) (noncompartmental analysis; human, plasma; oral, 100 mg, day 1, with food, geometric mean): 13600 ng·h/mL

CN(CC#N)C(=O)C[C@H](Nc1nc2ccccc2[nH]1)c1cccc(C(F)(F)F)c1
AUC(0-inf) (human; intravenous infusion, 1.5 mg/kg, 1 mg/mL formulation): 7330 ± 1580 ng·h/mL

A few entries again:
CC(C)n1c(Nc2cccnc2)nc2cnc(Nc3ccc(N4CCN(C)CC4)cc3)nc21
AUC(0-inf) (LC-MS/MS; human, male, plasma; oral, 100 mg, day 11, added: itraconazole 200 mg): 1150 ng·h/mL

N[C@@H]1c2cccnc2[C@H](OC(=O)N2CCC(n3c(=O)[nH]c4ncccc43)CC2)CC[C@H]1c1cccc(F)c1F
AUC(0-inf) (human, plasma; oral, 75 mg single dose, alone, arithmetic mean, rifampin DDI study): 5230 ng·h/mL

Cn1cncc1[C@@](N)(c1ccc(Cl)cc1)c1ccc2c(c1)c(-c1cccc(Cl)c1)cc(=O)n2C
AUC(0-inf) (healthy human subjects, plasma; oral, 50 mg, fasted): 442 ng·h/mL

N[C@](CO)(CCc1ccc(Sc2cccc(OCc3ccccc3)c2)cc1Cl)COP(=O)(O)O
AUC(0-inf) (human, blood; 3 mg MOC, MOC given alone): 121 ng·h/mL

Cn1cncc1[C@@](N)(c1ccc(Cl)cc1)c1ccc2c(c1)c(-c1cccc(Cl)c1)cc(=O)n2C
AUC(0-inf) (human, with dose-limiting toxicity, plasma; oral, dose not given, range): 1730 to 22700 ng·h/mL

CCn1cc(C(=O)N2CCOCC2)c(=O)c2cc(NC3Cc4ccccc4C3)cnc21
AUC(0-inf) (human, fasted; oral suspension, 2000 mg single dose, arithmetic mean): 5750 ng·h/mL

CC(C)c1nc(N(C)S(C)(=O)=O)nc(-c2ccc(F)cc2)c1/C=C/[C@@H](O)C[C@@H](O)CC(=O)O
AUC(0-inf) (human, plasma; oral, 20 mg, day 2, mean, alone): 57.8 ng·h/mL

[H]/N=C(/N)c1ccc(NCc2nc3cc(C(=O)N(CCC(=O)O)c4ccccn4)ccc3n2C)cc1
AUC(0-inf) (healthy human subjects, plasma; oral, 150 mg dabigatran etexilate, geometric mean, added: fruquintinib 5 mg): 924 ng·h/mL
